Published values of several laboratories.
Every numbered part comes from another study and shows a few of its results, in no order. Changes are numbered by the printed parent chain.

Series 1
Target: RING finger protein unkempt homolog, zinc fingers 1-6, GST-SBP tag (UNK, Homo sapiens, UniProt Q9C0B0, residues 30-357)
Sequence of UniProt Q9C0B0 (30-357, looked up): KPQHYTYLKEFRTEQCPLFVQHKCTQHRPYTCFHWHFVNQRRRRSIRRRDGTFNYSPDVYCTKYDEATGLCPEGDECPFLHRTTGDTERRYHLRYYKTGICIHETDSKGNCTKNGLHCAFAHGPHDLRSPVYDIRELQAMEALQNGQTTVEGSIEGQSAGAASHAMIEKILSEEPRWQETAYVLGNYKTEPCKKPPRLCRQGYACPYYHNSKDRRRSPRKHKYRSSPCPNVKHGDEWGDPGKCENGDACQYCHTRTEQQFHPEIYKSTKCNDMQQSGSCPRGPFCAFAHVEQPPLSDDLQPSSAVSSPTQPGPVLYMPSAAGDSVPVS
Technique: RNA Bind-n-Seq
Molecule type: RNA
Sample: in vitro
Tested at: not given
Setting: RNA with constant flanks, human-mouse chimeric sites, ends assumed
Baseline: input RNA pool
Direction: higher = stronger binding
With `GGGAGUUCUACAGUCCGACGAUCGAUCUCGGGCCCUCCCCAGGGGCCUCCUUUCGUAUAGUCACUGCUUCUGCAUCAGAUAUUUUUAGCUGCAACUCCCUACUGGGUGGGGCACCCAUUUCAGGCAGAAGGUUUUGGUACCCUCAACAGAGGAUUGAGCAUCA` the bound/input enrichment was 0.334 ratio.
The bound/input enrichment of `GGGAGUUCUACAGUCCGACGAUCGUAGCUGGGACUACAGAAAUGCUGGUAAUUUCAGUCAGUGAGUCGUGACUUCUGAUGUCCCAGCAAAUGUUGGCAUUGUUGACUGCUGAGAAGAUACUUCUGAGGACAUACAGCAGUGGUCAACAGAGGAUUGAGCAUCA` is reported as 0.103 ratio.
The bound/input enrichment of `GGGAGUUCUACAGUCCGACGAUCCUGGCACUCUAUCAGAUAGAUUACUUUUUUAAUGUAGAUGUAAUUUUAAAAAUGAAUGGCUACUUUACGUGAUAGAUUAGGGUUUUACUAUAUAUGUGUACAUAUGUAUAUAUAUAUAUACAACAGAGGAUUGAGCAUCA` is reported as 9.33 ratio.
The bound/input enrichment of `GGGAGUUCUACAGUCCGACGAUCUACUACUGAAUCUGUGAUAUUGGAAAUUAUUAUUAUGGCCAGGGUCAUCCCAUGAAGCCUCAUAGAAUCCGGAUGACUCAUAACUUGCUGCUAAAUUAUGGUUUAUACCGAAAAAUGGAACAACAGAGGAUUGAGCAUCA` is reported as 0.333 ratio.
`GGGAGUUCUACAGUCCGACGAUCGGGACUGAUUCAUCCCAAGGACAGGCAACCCCAUUUGAUGCCUGGACUGAUGACAGUAUGUUAGGGCCUAGUCAAAAUGUUGAAGCUGAGUCAAUUCAGGAUGCCAUGAGUAUGGAAGAGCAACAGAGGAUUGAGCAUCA` gave a bound/input enrichment of 0.594 ratio.
With `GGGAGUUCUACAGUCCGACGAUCUGUGCCCCACAAGAUCCUACCUGAGUGGCAGCUGAAGUUGACUCCCUCUCCUUGCCUGAACCCCCCCCCACUGCCCCCCCAUCCCCCAGUGUCGGCUGAGAUGUUGCCUCUGCACGGUUCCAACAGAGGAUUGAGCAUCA` the bound/input enrichment was 0.661 ratio.
For `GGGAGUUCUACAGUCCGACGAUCCAGUCCCCGUGUCCCAGUGCAGGACGAUGUGAACAAAAACUCAAAGCGGACCCUCUACUGUAGUUGAUGAUUCUCGAAAUGUGCUAUUGUUUUUAAACUUUUUUUUUUUUUUUUUAAAGACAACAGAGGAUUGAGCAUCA`, the bound/input enrichment was 1.09 ratio.
For `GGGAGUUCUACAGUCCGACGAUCGUUGCCAGGUUCCGGUGCCGUUGGGCUCGGUUCUCUCCUGAGCUACGUGUCUCUACGUUUUAGGUGUGCCAUCCAACAAACAUGGAUCAGGUAAUGCAGUUUGUGGAGCCCAGCCGGCAGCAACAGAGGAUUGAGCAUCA`, the bound/input enrichment was 0.108 ratio.

Series 2
Target: CCNB1, cyclin fold, Cln2 fusion (human)
Technique: yeast growth competition, sequencing
Sample: yeast
Setting: weak parent motif
Baseline: not given
Direction: higher = stronger binding
Starting sequence: CDKN1A docking peptide (human); SKACRRLFGPVDS
`K2Y`: “normalised enrichment score” 0.701.
For `G9Q`, “normalised enrichment score” read 0.544.
`L7H`: “normalised enrichment score” 0.598.
`S1A` — result for “normalised enrichment score”: 1.24.
`L7W` — result for “normalised enrichment score”: 0.224.
`K2M`: “normalised enrichment score” 0.824.
For `F8D`, “normalised enrichment score” read 0.227.
`V11Y`: “normalised enrichment score” 0.359.
For `A3L`, “normalised enrichment score” read 0.456.
`R6C` — result for “normalised enrichment score”: 0.227.
Under “normalised enrichment score”, `C4E` is recorded as 0.0906.
Under “normalised enrichment score”, `P10G` is recorded as 0.136.

Series 3
Target: Interferon regulatory factor 7, full length, phosphomimetic (IRF7, Homo sapiens, UniProt Q92985, residues 1-503, S101K/S471D/S472D/S475D/S476D/S477D/S483D/S484D/S487D)
Technique: protein-binding microarray
Molecule type: double-stranded DNA, one strand shown
Sample: in vitro
Tested at: 250 nM
Setting: 60-bp whole probe
Added: salmon DNA 0.4 mg/ml
Baseline: random background probes
Direction: higher = stronger binding
Constant ends, left off below: GCCTAGCAC … GTCTTGATTCGCTTGACGCTGCTG
Residues (chain): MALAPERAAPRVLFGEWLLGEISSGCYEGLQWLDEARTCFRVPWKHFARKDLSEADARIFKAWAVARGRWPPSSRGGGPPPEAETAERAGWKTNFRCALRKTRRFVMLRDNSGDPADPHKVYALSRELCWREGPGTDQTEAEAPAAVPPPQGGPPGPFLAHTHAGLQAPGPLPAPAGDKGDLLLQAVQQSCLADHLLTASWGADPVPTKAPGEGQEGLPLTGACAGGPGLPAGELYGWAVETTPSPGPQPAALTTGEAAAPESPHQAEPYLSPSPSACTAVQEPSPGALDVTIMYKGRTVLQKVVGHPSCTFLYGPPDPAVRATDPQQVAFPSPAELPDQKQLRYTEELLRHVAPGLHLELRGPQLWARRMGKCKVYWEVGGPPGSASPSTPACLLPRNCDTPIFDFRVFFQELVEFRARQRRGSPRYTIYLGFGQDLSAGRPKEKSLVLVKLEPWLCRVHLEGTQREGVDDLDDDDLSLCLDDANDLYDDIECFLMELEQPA
`TTAGAACTGTGGACTGGATTAGTGCTA` has a log fluorescence of -0.732 z-score.
For `TCACTTCTTTTTTTTCTACTGTGCTAG`, the log fluorescence was 1.26 z-score.
`GACGGTTTCGGTACCGGGACGTGCTAG` has a log fluorescence of 5.67 z-score.
`TTAGGTATCGGTATCTGTTAGTGCTAG` has a log fluorescence of 2 z-score.
The log fluorescence of `TCACATATACACTGTGTATCTGTGCTA` is reported as 0.171 z-score.
The log fluorescence of `GCAGACTACCTATGAGTATCGTGCTAG` is reported as -0.478 z-score.
With `TTAGGACTGGGGACAGGGTTAGTGCTA` the log fluorescence was -0.4 z-score.
`GGCGATTTCAGTATCGAGACGTGCTAG` gave a log fluorescence of -0.199 z-score.
The log fluorescence of `CTAGATTTCGGGTTTCGATTAGTGCTA` is reported as 7.77 z-score.
With `TTAGGTTTCGGTTTCAGTTAGTGCTAG` the log fluorescence was 14.5 z-score.
With `TTAGGTTTCGGGACTGGTTTAGTGCTA` the log fluorescence was 4.28 z-score.
For `CTGTTTCCATCTCTCAAAAGGTGCTAG`, the log fluorescence was 7.24 z-score.
`GACGACTTCGGGTATCGAGACGTGCTA` gave a log fluorescence of -0.241 z-score.
`TTAGGTATCGGTATCGGTAAGTGCTAG` has a log fluorescence of 2.35 z-score.
For `GACGGTATCGACTATCGGGCCGTGCTA`, the log fluorescence was -0.436 z-score.
For `GACGACCTCAGTCTCGAGACGTGCTAG`, the log fluorescence was 0.568 z-score.
With `TTAGGTCACCTTTTCCTTTAGTGCTAG` the log fluorescence was 1.19 z-score.
The log fluorescence of `GACGAACTGAGTCTCTAGACGTGCTAG` is reported as -0.393 z-score.
The log fluorescence of `TTAGGTATCGGGTTTCAGTTAGTGCTA` is reported as 2.74 z-score.

Further values, each from its own experiment
The fold induction of `PhoQ, residues 284 288 289 292 302 303 SSYNSA` is reported as 1 (PhoP, residues 12 14 15 18 19 HEGLL (Escherichia coli, UniProt P23836); Sort-seq, measured: YFP reporter; E. coli; PhoQ-PhoP variant library, added: 10 µM Mg2+; baseline: high Mg2+ state, higher = stronger signaling).

Excerpt of the above (series 2):
For `A3L`, “normalised enrichment score” read 0.456.
Under “normalised enrichment score”, `C4E` is recorded as 0.0906.
`V11Y`: “normalised enrichment score” 0.359.
